# Assay results pooled from the literature.
# Numbered parts are unrelated; each lists some results of a single study.

# Sample 1
# Target: RNA binding protein fox-1 homolog 2, RRM domain, GST-SBP tag (RBFOX2, Homo sapiens, UniProt O43251-10, residues 100-194)
# Technique: RNA Bind-n-Seq
# Molecule type: RNA
# Medium: in vitro
# Tested at: 365 nM
# Setting: natural RNA segment, single round, ends assumed
# Baseline: no-protein control
# Direction: higher = stronger binding
# Construct (chain): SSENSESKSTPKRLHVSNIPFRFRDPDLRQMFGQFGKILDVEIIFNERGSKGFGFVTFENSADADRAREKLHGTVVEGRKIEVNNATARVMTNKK
Sequence,RBNS enrichment (R)
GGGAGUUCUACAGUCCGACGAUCGGAAAGAAAAUGAUGUCUGUUGUUAUAGUUCAUUGUUUUGCCUACUCAGCAGAAGUGAUGACUCUUAAAAAUUGGCUUUGACCAAAGUUCUCUUGUUUUCAGGGAAAGAAUGGAAUUCUCGGGUGCCAA,0.364
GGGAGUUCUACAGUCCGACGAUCUACCAAACAUUUCCUAAACUCUCUAGUUAGAUAUCUGACUUGGGAGUAUUAAAAAUUGGGUCUAUGACAUAUUGUCCAAAAGGAAUGCUGUUCUUAAAGCAUUAUUUACAUGGAAUUCUCGGGUGCCAA,0.341
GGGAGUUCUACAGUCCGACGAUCGAAGAGCCAGCAGUUGAGGCUCCUCAGUUUUAGUGCUGAAAUAAUAAACAGUGACAGGUCAACAGUAUCCUUAAUCUGUCUGAGUGUUCCUCCGCCUGGGGUUGGUGUGGUGGAAUUCUCGGGUGCCAA,1.34
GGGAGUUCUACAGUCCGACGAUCAUCUUUCUCCCUCAACUGAAGGGGUGCACCCACCUGUUUUCUGAAACACACGAGCAAACCCAGAGGUGGAUGUUAUGAACAGCUGUGUCUGCCAAACACAUUUACCCUUUUGGAAUUCUCGGGUGCCAA,0.325
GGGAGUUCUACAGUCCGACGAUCAAACAUGACUCGUAUAUGUCUCAGGUCCCUGCAGGGCCAAGCACCUAGCCUCGCUCUUGGCAGGUACUCAGCGAAUGAAUGCUGUAUAUGUUGGGUGCAAAGUUCCCUACUGGAAUUCUCGGGUGCCAA,1.25
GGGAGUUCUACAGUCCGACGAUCUGCUGGGGCUUCCCCUUCGCCACACAGAAGCCUGCUUAGUGCUUUCUGCACCAGACAACCUGUUGAGGCGUAUAACCUGAUCUGUACAUUUUUUUAAGUGUGCAGGGCAGUGGAAUUCUCGGGUGCCAA,0.19
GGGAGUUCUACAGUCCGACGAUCAUUGGAAAAGAUUUUCAAAAUUAAUAUAAAGUGCAGAAGUUAAAAAUCUAAUAUUUAGUUGUUUAGGAAUAAUCACAAGUAUCGGCAGUCAAUUUUAAAGCAUUAUUAAGUGGAAUUCUCGGGUGCCAA,0.432
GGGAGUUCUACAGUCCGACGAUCUUGACUUUUUAAUUUUUCUUUUGUUAUUUGUAUUUGCUAGUCUCUGAUUUCCUCAAAACGAAGUGGAAUUUACUACUGUUGUCAGUAUCGGUGUUUUGAAUUGGUGCCUGUGGAAUUCUCGGGUGCCAA,4.47

# Sample 2
# Target: RING finger protein unkempt homolog, zinc fingers 1-6, GST-SBP tag (UNK, Homo sapiens, UniProt Q9C0B0, residues 30-357)
# Technique: RNA Bind-n-Seq
# Molecule type: RNA
# Medium: in vitro
# Tested at: not given
# Setting: RNA with constant flanks, ends assumed
# Baseline: input RNA pool
# Direction: higher = stronger binding
# Target sequence (chain): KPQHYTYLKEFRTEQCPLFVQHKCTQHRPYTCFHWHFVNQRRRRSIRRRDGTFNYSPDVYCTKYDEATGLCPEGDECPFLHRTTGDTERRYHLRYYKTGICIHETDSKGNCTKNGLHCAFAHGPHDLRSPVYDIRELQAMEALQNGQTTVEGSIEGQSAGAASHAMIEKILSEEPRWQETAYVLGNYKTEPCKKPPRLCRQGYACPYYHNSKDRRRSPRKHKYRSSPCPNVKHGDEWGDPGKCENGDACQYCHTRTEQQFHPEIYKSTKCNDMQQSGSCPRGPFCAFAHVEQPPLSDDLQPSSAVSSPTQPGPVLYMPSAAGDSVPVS
Sequence,bound/input enrichment [ratio]
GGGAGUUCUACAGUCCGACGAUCCGCGGCCCCGCGACCCUCGGGGGUCGCUGAGAGGCCCGGCGUCGGCGCCGCAGCCGUCCCGGAUUUCUGUCCAAAGGCGUCCCUGGCGUCCCCAGCCCGAAGCUCCAAGCUCGGGGCUGCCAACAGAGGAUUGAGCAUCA,0.0734
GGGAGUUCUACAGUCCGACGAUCGAACAGGAGCAGCAUAGGCUGUUUGAGCUUUGGGGAAAUGAACUUUGCUUUUUAUAUUUAACCCGGAUACUUUUAUAUGAUGGGUGCUUUGAGUGUGAAUGCAGCAGGCUCUCUUGUUUCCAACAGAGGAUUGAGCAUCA,0.401
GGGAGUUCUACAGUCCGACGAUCGUAGUUGGAGGGUACUUCGGCAUUCAGCGCUGCAAGACUUUGGACUGUUACGACCCAACUUCCGAUGUGUGGAACAGCAUAACCACUGUUCCCUACUCUCUGAUCCCUACUGCAUUCGUCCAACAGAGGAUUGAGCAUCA,0.0759
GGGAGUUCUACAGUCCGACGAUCAAGUUACAGAUUUUAGCCAGUCUUUGCUUUUAUACUUUUGUGAAAUUUAAUUUCUCUCUACCGCACCUUCCUUUUUCGUUUUCAGUUAUCAAAAGUGACUUUGACCUCAUAAAAGAGUUGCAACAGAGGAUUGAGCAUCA,0.507
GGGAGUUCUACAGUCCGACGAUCAAGAAAUUAUUAAACAAAACAAGGGGGGCAAUAAAUGUAUAUAACAUUAAUAAUGUCGCGCCGGUGCCGGUUCCUGGAUGCAUUUGGAUGUACAGACUGACUGGGGGACUGUAUUGCGAUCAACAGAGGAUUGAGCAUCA,0.808
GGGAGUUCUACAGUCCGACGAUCACCUCGUUUCUUUAUCUUCUUUUUUAUUUUCUUUCUUUUUCUUCGUUUUUUUUUUUUUUCCCGUGUUGUUACCCACGCCAUUUUACGUCUCCUUCACUGAAGGGCUAGAGUUUUAACUUUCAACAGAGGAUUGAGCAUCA,16.4
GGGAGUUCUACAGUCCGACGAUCCUCAACCAUCCAAAUGUAAUAAAAUAUUAUGCAUCAUUCAUUGAAGAUAAUGAACUAAACACCGUUUUGGAACUAGCAGAUGCUGGCGACCUAUCCAGAAUGAUCAAGCAUUUUAAGAAGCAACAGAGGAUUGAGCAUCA,0.171
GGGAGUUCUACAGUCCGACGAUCUUUGUAAAUUUCUCCGAGCAGAAAGAAAAGUUAAUAAAGCGUCAAGAAGAGUUAGACCGGGGUUACAAAUCAAUCAUGGAACUGAUGAAUGUACUUGAACUUCGGAAAUAUGAAGCUAUUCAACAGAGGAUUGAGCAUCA,0.296

# Sample 3
# Target: Histone acetyltransferase KAT6A, winged helix 1, GST fusion (KAT6A, Homo sapiens, UniProt Q92794, residues 1-85)
# Technique: protein binding microarray
# Molecule type: double-stranded DNA, one strand shown
# Medium: in vitro
# Tested at: not given
# Setting: 8-mer, flanks averaged, mean of 2 arrays, mostly near background
# Baseline: not given
# Direction: higher = stronger binding
# Residues (chain): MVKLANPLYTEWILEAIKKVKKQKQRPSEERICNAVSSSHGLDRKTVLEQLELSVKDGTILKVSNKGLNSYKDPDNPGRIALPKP
Sequence,E-score
GCCTGACA,-0.0587
CCGTACCG,0.398
AACGGCCC,0.219
AGTGAGTA,-0.109
AAGACCGT,0.141
ACATAACA,-0.0571
AGTAACAC,0.0463
AGAACTCG,-0.125
ATTACAAT,0.0373
ATATTGTG,-0.0716
ACGGAGAC,0.186
ACCAATAT,-0.217
CACTTGAC,0.0425
AAACATCA,-0.154
GCGGTTAA,0.18
GGCCAAAC,0.115
TAAGTATA,-0.0122
AAGGGGTG,-0.0472
GCTACCAA,0.0501
GACAGCGC,0.385
CTCTATGC,0.049
ATATGTAG,-0.218
AAAGGCTG,-0.175

# Sample 4
# Target: Interferon regulatory factor 7, full length, phosphomimetic (IRF7, Homo sapiens, UniProt Q92985, residues 1-503, S101K/S471D/S472D/S475D/S476D/S477D/S483D/S484D/S487D)
# Technique: protein-binding microarray
# Molecule type: double-stranded DNA, one strand shown
# Medium: in vitro
# Tested at: 250 nM
# Setting: 60-bp whole probe
# Added: salmon DNA 0.4 mg/ml
# Baseline: random background probes
# Direction: higher = stronger binding
# Constant ends, left off below: GCCTAGCAC … GTCTTGATTCGCTTGACGCTGCTG
# Construct (chain): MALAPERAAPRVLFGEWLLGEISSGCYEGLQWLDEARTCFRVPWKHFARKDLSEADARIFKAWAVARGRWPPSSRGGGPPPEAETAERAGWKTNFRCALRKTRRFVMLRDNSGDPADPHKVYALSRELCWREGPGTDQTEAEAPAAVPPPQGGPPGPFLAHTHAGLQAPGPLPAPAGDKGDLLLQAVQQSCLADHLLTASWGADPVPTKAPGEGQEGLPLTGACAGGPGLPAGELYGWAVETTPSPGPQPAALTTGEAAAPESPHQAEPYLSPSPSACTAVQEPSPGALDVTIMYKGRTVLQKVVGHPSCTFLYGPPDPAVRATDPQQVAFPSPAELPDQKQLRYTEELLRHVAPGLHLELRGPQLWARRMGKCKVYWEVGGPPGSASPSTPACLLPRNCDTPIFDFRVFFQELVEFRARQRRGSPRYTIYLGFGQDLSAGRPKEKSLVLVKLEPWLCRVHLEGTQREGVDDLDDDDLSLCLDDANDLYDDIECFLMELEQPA
Sequence,log fluorescence
GACGGACTGTGTCTCGGGACGTGCTAG,-0.346 z-score
GACGGTTTCGGTTTCGGGAAGTGCTAG,14.3 z-score
GACGGTCTAGGTATCGGGACGTGCTAG,-0.0868 z-score
GACGGTATCGGTATCCGGACGTGCTAG,1.95 z-score
TCATTCCTGATCTCTGGTACTGTGCTA,1.4 z-score
GACGGTTTAGGGTTTCGGGACGTGCTA,2.16 z-score
TTAGATATCAGTTGCGATTAGTGCTAG,0.605 z-score
GACGATTCCGGGTTTCGAGACGTGCTA,3.29 z-score
GACGGGATCGACACTGGGGACGTGCTA,-0.792 z-score
GACGATTTTAGACTGGAGACGTGCTAG,-0.382 z-score
TCACTTTCACTTCTCCCACTGTGCTAG,4.16 z-score
TTAGGTATCGGGACTGAGTTAGTGCTA,0.273 z-score
TTAGATATCGTGTATCGATTAGTGCTA,0.165 z-score
GACGGTTTCGGCCTCGGGACGTGCTAG,2.73 z-score
TCAAATATTTACCTCTCACTGTGCTAG,0.538 z-score
AAGTGTATATACTATATGCATGTGCTA,-0.25 z-score
TTCACTTTCTTTAACTCATTGTGCTAG,0.927 z-score
CTGTACTTGAATTCTGCAAAGTGCTAG,0.567 z-score
GACGGTTCCGCTTTCGGGACGTGCTAG,4.25 z-score
